Results from different studies.
Parts stem from different laboratories: compare values within a part only.

Block 1
Target: Calcium/calmodulin-dependent protein kinase type II subunit alpha (CAMK2A, Homo sapiens, UniProt Q9UQM7)
UniProt Q9UQM7, sequence (whole entry, looked up): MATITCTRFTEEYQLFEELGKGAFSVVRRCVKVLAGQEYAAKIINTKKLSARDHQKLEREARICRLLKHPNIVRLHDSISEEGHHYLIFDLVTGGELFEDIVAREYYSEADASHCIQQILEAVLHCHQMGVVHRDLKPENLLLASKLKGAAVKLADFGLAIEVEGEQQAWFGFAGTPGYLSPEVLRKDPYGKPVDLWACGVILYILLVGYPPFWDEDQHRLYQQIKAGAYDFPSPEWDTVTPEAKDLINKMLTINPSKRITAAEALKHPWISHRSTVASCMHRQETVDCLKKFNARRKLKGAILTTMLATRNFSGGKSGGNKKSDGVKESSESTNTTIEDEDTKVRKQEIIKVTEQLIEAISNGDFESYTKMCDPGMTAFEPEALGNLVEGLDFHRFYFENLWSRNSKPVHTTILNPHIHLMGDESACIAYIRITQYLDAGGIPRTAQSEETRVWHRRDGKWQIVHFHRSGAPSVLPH
Effect on: enzyme activity
Action: inhibitor
Tested at: 10 µM
Structure (SMILES) | inhibition
O=C1CCC(N2C(=O)c3ccccc3C2=O)C(=O)N1 (stereo not drawn) | -3%
Cn1cc(C(N)=O)ccc1=O | -5%
N[C@H]1[C@H](O[C@H]2[C@H](O)[C@@H](N)[C@H](O[C@H]3[C@H](O)[C@@H](N)[C@H](O[C@H]4[C@H](O)[C@@H](N)[C@H](O[C@@H]([C@H](O)[C@@H](N)C=O)[C@H](O)CO)O[C@@H]4CO)O[C@@H]3CO)O[C@@H]2CO)O[C@H](CO)[C@@H](O)[C@@H]1O | 68%
CC1(C)CC[C@]2(C(=O)O[C@@H]3O[C@H](CO)[C@@H](O)[C@H](O)[C@H]3O)[C@H](O)C[C@]3(C)C(=CC[C@@H]4[C@@]5(C)CC[C@H](O[C@@H]6O[C@H](CO)[C@@H](O)[C@H](O)[C@H]6O)C(C)(C)[C@@H]5CC[C@]43C)[C@@H]2C1 | -17%
CC/C=C\C/C=C\C/C=C\CCCCCCCC(=O)OC | -14%
CC1=CC[C@@]23C[C@@H]1C(C)(C)[C@@H]2CC[C@H]3C | -16%
CC(=O)O[C@H]1C(=O)c2c(O)cc(O)cc2O[C@@H]1c1ccccc1 | -3%

Block 2
Target: Serine/threonine-protein kinase PAK 2 (PAK2, Homo sapiens, UniProt Q13177)
UniProt Q13177, sequence (whole entry, looked up): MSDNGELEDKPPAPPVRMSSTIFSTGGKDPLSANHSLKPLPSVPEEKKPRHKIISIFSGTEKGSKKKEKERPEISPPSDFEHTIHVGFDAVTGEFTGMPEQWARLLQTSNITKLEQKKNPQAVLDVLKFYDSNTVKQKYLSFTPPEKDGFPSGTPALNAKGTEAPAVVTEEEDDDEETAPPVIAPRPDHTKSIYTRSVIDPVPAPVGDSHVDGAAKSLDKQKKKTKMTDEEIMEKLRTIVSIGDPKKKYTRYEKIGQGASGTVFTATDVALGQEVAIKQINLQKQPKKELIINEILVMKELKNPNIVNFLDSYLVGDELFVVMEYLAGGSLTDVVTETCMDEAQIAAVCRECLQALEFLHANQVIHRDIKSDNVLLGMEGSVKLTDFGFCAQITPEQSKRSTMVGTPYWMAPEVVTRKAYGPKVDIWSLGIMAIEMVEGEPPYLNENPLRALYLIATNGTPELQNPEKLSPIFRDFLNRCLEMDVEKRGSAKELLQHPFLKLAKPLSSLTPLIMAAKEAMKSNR
Effect on: enzyme activity
Action: inhibitor
Tested at: 0.5 µM
Relative to: control
SMILES | remaining activity
CC(C)[C@H](CO)Nc1nc(Nc2cccc(Cl)c2)c2ncn(C(C)C)c2n1 | 103%
COc1cc2ncnc(Nc3ccc(OCc4ccccc4)cc3)c2cc1OC | 102%
CCOc1cc2ncnc(Nc3cccc(Br)c3)c2cc1OCC | 105%
CCN1/C(=C/C(C)=O)Sc2ccc(OC)cc21 | 105%
COc1cc2ncnc(N3CCN(C(=O)Nc4ccc(Oc5ccccc5)cc4)CC3)c2cc1OC | 104%
CC(=O)O/N=C1/C(c2c(O)[nH]c3cc(Br)ccc23)=Nc2ccccc21 | 103%
Cn1cnc2cc3c(Nc4cccc(Br)c4)ncnc3cc21 | 99.8%
O=C(Nc1ccc(Cl)cc1)c1ccccc1NCc1ccncc1 | 91%
CN(C)CCCn1cc(C2=C(c3c[nH]c4ccccc34)C(=O)NC2=O)c2ccccc21 | 96.2%
Cn1cc(/C=C2\C(=O)Nc3ccc(S(N)(=O)=O)cc32)c2ccccc21 | 79.2%
CCC(=O)Nc1ccc2ncnc(Nc3cccc(Br)c3)c2c1 | 101%
COc1cc2ncc(-c3ccccc3)nc2cc1OC | 85.6%
O=c1cc(N2CCOCC2)oc2c1ccc1ccccc12 | 103%
Nc1[nH]nc2nnc(-c3c(-c4ccccc4)nn4ccccc34)cc12 | 100%
Cc1ccc(NC(=O)c2ccc(CN3CCN(C)CC3)cc2)cc1Nc1nccc(-c2cccnc2)n1 | 102%
COc1ccc(Cl)cc1NC(=O)Nc1cc(C)nc2ccccc12 | 97.2%
COc1ccc(-c2cnc3c(-c4ccsc4)cnn3c2)cc1 | 79.1%
O=C1NC(=O)/C(=C/c2ccc3nccnc3c2)S1 | 98.4%
CC(C)c1nn(-c2c(Cl)cccc2Cl)c2nc(Cc3ccc(OCCO)cc3)[nH]c(=O)c12 | 95.6%
CS(=O)(=O)CCNCc1ccc(-c2ccc3ncnc(Nc4ccc(OCc5cccc(F)c5)c(Cl)c4)c3c2)o1 | 102%
Cc1nc(Nc2ncc(C(=O)Nc3c(C)cccc3Cl)s2)cc(N2CCN(CCO)CC2)n1 | 113%
C[S+]([O-])c1ccc(-c2nc(-c3ccncc3)c(-c3ccc(F)cc3)[nH]2)cc1 (stereo not drawn) | 78%

Block 3
Species: human
Medium: microsomes or S9
Tested at: 2 µM
Time: 0.5 h
SMILES | remaining compound [%]
COC(=O)c1ccc(-c2ccccc2NS(C)(=O)=O)s1 | 64
COc1ccc(Cl)cc1NC(=O)c1cc2c(=O)oc3ccccc3c2n1C | 80.4
COc1cc(=O)n(C)cc1C(=O)Nc1ccccc1Br | 1.9
CC(C)c1nc(OCC(=O)O)c(C#N)c2c1COC(C)(C)C2 | 68.7
O=C(C1c2ccccc2C(=O)N2CCc3ccccc3C12)N1CCC(Cc2ccccc2)CC1 (stereo not drawn) | 35.9
O=C(O)C1C[S+]([O-])C2c3ccccc3C(=O)N12 (stereo not drawn) | 21.4
COc1nc(OC)c(C(C)C)c(-c2nnn(C)n2)n1 | 46.3
CCn1nc(C)c(C2CC(=O)Nc3nc(N4CCCCC4)nc(O)c32)c1C (stereo not drawn) | > 99.9
COc1cc(=O)n(C)cc1C(=O)NCc1nc(C)no1 | 92.5
OCCC1(CNc2cnc3cc(Cl)c(Cl)cc3n2)CCOC1 (stereo not drawn) | 33.1
[O-][S+](CCc1ccccc1)Cc1c(Cl)cccc1Cl (stereo not drawn) | 0.772
Cc1nn(C(=O)c2cccnc2)c(C)c1Cc1c(F)cccc1Cl | < 1

Block 4
Target: 5-hydroxytryptamine receptor 1B (HTR1B, Homo sapiens, UniProt P28222)
UniProt P28222, sequence (whole entry, looked up): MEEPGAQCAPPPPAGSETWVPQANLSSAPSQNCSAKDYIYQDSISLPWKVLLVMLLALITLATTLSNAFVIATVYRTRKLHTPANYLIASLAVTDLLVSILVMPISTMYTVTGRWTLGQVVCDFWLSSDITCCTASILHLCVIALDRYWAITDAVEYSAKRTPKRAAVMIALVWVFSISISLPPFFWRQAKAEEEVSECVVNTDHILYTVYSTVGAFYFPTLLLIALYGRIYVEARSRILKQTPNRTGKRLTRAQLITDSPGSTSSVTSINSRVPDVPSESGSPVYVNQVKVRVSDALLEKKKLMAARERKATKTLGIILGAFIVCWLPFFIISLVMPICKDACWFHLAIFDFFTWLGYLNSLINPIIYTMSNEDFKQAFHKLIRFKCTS
Effect on: binding
Method: radioligand binding
Tested at: 10 µM
Compound | inhibition
Cc1c(N2CCCC2)nc2ccc(Br)cc2c1C(=O)NC[C@H](CCC(=O)O)c1ccccc1Cl | -2.2%
Cc1ncc(-c2cc(Cl)ccc2F)cc1-n1c(=O)n(CC(N)=O)c2ccccc21 | -7.07%
CCCOc1ccc([C@H]2[C@H](C(=O)O)[C@@H](c3ccc4c(c3)OCO4)CN2CC(=O)Nc2c(CC)cccc2CC)cc1 | 4.31%
CCC(F)(F)c1cc(N2CCC(S(C)(=O)=O)CC2)nc2sc(C(N)=O)c(N)c12 | 3.43%
CNC(=O)Nc1ccc2c(c1)[C@]1(CC2)OC(=O)N(CC(=O)N(Cc2ccc(F)cc2)[C@@H](C)C(F)(F)F)C1=O | 11.2%
O=C(NCCCC1CCCCC1)c1ccc(CNC(=O)c2cnn(-c3ccccc3)c2C(F)(F)F)cc1 | 9.89%
CN(C)c1ncnc(-c2ccc3nc(Nc4cc(CN5CCN(C(=O)CC(F)(F)F)CC5)ccn4)[nH]c3c2)c1Cl | 6.15%
CCOc1ccc(S(=O)(=O)Nc2ccc(Cl)cc2C#Cc2cnc(C(=O)O)cc2OC)c2ncccc12 | -21.8%
CN1C(=O)[C@@H](N2CCc3cn(Cc4ccccc4)nc3C2=O)COc2ccccc21 | 0.99%
NS(=O)(=O)c1cc(NC(=O)Cc2ccccc2)ccc1Oc1cccc(Cl)c1 | -2.93%
CC[C@H](CC(=O)O)n1c(=O)c2ncccc2n(Cc2cn(C)c3cc(C)cc(C)c23)c1=O | 5.01%
CC(=O)Nc1ncc(CN2CCC[C@H](Cc3cc(C)nc(C)c3)C2)s1 | -2.53%
Nc1c(C(=O)NCc2ccc(C(=O)NCCCC3CCCCC3)cc2)cnn1-c1ccccc1 | 10.4%
COCc1nc2cnc3cc(-c4c(C)noc4C)c(OC[C@H]4CCNC4)cc3c2n1[C@H](C)c1ccccc1 | 8.66%
COCCc1ccc(-c2c(C)nc3c(N4CCOCC4)ccnn23)cn1 | -0.76%
CN1CCN(c2ccnc(NCCc3ccccc3)n2)CC1 | 45.9%

Repeated from above (block 2):
SMILES | remaining activity
CCN1/C(=C/C(C)=O)Sc2ccc(OC)cc21 | 105%
COc1cc2ncnc(N3CCN(C(=O)Nc4ccc(Oc5ccccc5)cc4)CC3)c2cc1OC | 104%
CC(=O)O/N=C1/C(c2c(O)[nH]c3cc(Br)ccc23)=Nc2ccccc21 | 103%
Cn1cnc2cc3c(Nc4cccc(Br)c4)ncnc3cc21 | 99.8%
O=C(Nc1ccc(Cl)cc1)c1ccccc1NCc1ccncc1 | 91%
CN(C)CCCn1cc(C2=C(c3c[nH]c4ccccc34)C(=O)NC2=O)c2ccccc21 | 96.2%
Cn1cc(/C=C2\C(=O)Nc3ccc(S(N)(=O)=O)cc32)c2ccccc21 | 79.2%
CCC(=O)Nc1ccc2ncnc(Nc3cccc(Br)c3)c2c1 | 101%
